Measured values pooled from the literature.
Compare with care: the assays were run in different laboratories. ± gives the spread as reported.
gyrB with GyrA: DNA gyrase subunit B, with GyrA (gyrB, Mycobacterium tuberculosis, UniProt P9WG45)
Chain of UniProt P9WG45 (whole entry, looked up): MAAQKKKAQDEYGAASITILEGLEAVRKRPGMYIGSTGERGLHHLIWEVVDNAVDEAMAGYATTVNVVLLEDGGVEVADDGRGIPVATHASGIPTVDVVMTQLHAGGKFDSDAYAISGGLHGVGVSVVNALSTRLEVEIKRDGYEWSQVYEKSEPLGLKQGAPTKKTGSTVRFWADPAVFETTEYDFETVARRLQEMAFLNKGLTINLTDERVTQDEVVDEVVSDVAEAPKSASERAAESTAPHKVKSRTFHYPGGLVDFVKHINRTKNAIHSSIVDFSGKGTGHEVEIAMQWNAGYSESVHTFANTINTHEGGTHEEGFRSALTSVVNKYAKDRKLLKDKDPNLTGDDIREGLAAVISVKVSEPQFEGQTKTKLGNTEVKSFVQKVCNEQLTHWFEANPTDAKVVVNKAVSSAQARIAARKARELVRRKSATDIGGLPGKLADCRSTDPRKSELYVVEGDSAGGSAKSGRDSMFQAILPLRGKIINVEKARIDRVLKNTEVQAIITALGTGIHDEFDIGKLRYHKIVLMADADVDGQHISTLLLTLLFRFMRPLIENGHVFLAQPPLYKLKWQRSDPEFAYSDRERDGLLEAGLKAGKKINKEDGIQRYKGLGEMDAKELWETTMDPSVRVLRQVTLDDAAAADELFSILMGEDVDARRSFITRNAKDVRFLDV
Chain of UniProt Q9EXR0 (whole entry, looked up): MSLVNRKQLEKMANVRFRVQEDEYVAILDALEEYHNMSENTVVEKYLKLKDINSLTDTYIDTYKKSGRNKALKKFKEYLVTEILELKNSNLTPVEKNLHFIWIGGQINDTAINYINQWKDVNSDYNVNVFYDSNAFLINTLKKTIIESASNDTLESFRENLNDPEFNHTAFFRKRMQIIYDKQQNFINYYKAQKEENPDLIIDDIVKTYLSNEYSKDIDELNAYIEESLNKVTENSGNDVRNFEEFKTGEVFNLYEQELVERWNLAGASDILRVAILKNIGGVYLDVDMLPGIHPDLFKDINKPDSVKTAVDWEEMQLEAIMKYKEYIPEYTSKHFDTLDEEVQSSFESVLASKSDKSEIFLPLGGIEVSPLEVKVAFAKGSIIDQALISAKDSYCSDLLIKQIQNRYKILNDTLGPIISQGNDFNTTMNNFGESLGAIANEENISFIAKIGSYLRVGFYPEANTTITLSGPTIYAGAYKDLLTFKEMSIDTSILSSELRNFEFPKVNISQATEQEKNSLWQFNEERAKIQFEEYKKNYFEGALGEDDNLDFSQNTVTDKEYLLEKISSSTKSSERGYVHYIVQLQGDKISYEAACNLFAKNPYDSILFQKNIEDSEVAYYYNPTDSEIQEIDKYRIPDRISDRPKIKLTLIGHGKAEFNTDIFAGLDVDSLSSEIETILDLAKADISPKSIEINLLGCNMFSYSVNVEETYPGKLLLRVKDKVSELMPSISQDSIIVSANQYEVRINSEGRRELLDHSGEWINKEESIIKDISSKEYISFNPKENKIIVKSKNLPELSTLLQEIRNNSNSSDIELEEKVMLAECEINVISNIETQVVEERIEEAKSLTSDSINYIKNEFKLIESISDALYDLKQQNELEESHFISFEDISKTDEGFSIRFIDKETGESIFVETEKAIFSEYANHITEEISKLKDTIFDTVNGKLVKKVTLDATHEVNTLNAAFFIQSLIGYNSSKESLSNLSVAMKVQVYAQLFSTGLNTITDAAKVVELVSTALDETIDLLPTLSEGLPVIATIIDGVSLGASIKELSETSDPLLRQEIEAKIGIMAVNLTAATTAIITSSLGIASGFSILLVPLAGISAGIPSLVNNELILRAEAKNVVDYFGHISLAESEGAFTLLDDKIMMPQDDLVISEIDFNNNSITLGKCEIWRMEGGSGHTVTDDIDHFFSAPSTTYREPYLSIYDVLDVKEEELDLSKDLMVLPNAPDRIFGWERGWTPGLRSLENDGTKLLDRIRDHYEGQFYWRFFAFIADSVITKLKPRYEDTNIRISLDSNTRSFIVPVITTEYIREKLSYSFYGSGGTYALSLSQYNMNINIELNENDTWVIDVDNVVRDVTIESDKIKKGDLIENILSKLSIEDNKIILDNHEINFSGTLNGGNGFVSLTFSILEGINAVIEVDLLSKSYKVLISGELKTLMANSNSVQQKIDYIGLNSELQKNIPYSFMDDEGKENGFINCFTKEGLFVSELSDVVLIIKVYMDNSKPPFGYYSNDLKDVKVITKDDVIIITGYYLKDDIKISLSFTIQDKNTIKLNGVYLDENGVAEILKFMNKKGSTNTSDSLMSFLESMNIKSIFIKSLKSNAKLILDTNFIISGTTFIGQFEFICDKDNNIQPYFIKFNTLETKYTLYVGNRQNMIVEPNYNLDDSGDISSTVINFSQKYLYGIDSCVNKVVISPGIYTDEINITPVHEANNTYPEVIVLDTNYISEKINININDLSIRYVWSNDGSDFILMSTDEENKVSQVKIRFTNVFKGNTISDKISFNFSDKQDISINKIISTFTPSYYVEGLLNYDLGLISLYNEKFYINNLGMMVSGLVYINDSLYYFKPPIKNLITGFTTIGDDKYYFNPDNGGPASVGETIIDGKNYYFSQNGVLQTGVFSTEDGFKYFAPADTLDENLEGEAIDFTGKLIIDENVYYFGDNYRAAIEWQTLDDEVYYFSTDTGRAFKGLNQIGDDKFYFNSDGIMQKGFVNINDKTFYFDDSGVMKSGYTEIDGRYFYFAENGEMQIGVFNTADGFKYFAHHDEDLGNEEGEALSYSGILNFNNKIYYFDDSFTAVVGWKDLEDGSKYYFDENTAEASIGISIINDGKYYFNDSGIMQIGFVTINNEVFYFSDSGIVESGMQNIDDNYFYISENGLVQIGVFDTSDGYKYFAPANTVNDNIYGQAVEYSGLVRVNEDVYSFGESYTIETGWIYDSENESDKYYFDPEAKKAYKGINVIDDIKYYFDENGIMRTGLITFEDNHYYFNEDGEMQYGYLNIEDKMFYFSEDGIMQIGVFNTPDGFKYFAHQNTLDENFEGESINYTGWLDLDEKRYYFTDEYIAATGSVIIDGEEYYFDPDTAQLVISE
Chain of UniProt P35372 (whole entry, looked up): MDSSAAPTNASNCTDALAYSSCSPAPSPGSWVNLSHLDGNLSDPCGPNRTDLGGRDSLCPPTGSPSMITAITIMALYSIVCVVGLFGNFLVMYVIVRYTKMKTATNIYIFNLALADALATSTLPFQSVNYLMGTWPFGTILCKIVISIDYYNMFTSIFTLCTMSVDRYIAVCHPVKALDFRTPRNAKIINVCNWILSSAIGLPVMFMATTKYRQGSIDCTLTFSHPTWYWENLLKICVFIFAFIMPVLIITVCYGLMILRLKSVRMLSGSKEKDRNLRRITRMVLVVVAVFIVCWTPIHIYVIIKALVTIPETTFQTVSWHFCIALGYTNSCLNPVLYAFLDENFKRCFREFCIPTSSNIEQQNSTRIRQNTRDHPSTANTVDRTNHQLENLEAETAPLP
Chain of UniProt Q86UE8 (whole entry, looked up): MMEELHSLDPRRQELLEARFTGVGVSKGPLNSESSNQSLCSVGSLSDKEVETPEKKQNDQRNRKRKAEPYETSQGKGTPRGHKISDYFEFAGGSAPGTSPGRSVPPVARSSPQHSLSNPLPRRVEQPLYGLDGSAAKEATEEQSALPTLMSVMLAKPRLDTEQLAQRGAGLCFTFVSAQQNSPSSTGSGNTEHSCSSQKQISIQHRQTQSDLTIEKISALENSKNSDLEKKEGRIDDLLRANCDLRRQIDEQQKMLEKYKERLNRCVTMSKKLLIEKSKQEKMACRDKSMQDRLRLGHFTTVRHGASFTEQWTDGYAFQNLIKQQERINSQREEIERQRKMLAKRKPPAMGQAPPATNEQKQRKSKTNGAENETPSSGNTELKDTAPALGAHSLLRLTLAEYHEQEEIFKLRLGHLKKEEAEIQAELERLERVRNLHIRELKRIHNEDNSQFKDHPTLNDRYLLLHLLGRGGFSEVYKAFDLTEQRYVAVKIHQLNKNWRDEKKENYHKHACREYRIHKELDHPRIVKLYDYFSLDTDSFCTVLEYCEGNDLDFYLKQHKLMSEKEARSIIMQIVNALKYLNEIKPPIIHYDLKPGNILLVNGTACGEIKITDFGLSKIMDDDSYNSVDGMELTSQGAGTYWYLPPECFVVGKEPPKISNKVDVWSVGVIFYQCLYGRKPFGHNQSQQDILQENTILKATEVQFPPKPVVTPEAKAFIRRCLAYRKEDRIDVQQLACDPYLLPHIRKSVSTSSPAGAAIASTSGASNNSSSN

The IC50 of `O=C(O)CCc1c(C(=O)N2CCCC2)[nH]c2ccc(Cl)cc12` is reported as over 500 µM (gyrB with GyrA; inhibitor).
For `C[C@@H]1N/C(=C\[N+](=O)[O-])N(Cc2ccc(Cl)nc2)[C@H]1C`, the Ki was 0.0517 ± 0.0196 µM (radioligand binding; Musca domestica head membranes; added: [3H]imidacloprid).
`COc1cc(Nc2ncc(F)c(Nc3ccc4c(n3)NC(=O)C(C)(C)O4)n2)cc(OC)c1OC` has an IC50 of over 10 µM (P2Y purinergic receptor).
`COc1ccc(NC(=O)N2CCCCN3[C@H](CN(C)C)[C@H](c4ccc(C#Cc5ccccc5)cc4)[C@@H]3C2)cc1` gave an EC50 of 0.05 µM (Toxoplasma gondii; tachyzoite growth, luciferase; ME49-Fluc, type II).
For `O=C(CCc1c(C(=O)N2CCCC2)[nH]c2ccc(Cl)cc12)N1CCCC1`, the IC50 was over 500 µM (gyrB with GyrA; inhibitor).
For `C[C@H]1CN(c2n[nH]c3nc(N[C@H]4CC[C@H](NS(=O)(=O)CCC(F)(F)F)CC4)ncc23)CCO1`, the IC50 was at least 20 µM (TLK2 (Homo sapiens, UniProt Q86UE8); biochemical).
The maximum inhibition of `Cc1sc2c(c1C)C(c1ccc(Cl)cc1)=N[C@@H](CC(N)=O)c1nnc(C)n1-2` is reported as 3.13% (human coronavirus OC43; virus-induced cell killing; MRC-5; screen).
For `O[C@H]1[C@H](O)[C@@H](O)CN2CC[C@H](O)[C@H]12`, the Ki was 3880 µM (Toxin B, glucosyltransferase domain (tcdB, Clostridioides difficile, UniProt Q9EXR0)).
With `Cc1nc2ccc(C(=O)N3CCC4(CC3)CC(=O)c3c(cnn3C(C)C)C4)cc2[nH]1` the maximum inhibition was 16.5% (human coronavirus OC43; virus-induced cell killing; MRC-5; screen).
`CC[C@@H](c1cccc(O)c1)[C@@H](C)CN(C)C` gave an EC50 of 2.51 µM (OPRM1 (Homo sapiens, UniProt P35372); agonist; human cells; WT receptor, receptor depletion by β-CNA).

Some of these lines once more:
`COc1ccc(NC(=O)N2CCCCN3[C@H](CN(C)C)[C@H](c4ccc(C#Cc5ccccc5)cc4)[C@@H]3C2)cc1` gave an EC50 of 0.05 µM (Toxoplasma gondii; tachyzoite growth, luciferase; ME49-Fluc, type II).
